Experimental data from different studies.
Numbered parts are unrelated; each lists some results of a single study. Changes are numbered by the printed parent chain.

Study 1
Target: Interferon regulatory factor 7, full length, phosphomimetic (IRF7, Homo sapiens, UniProt Q92985, residues 1-503, S101K/S471D/S472D/S475D/S476D/S477D/S483D/S484D/S487D)
Method: protein-binding microarray
Form: double-stranded DNA, one strand shown
Medium: in vitro
Tested at: 250 nM
Notes: 60-bp whole probe
Together with: salmon DNA 0.4 mg/ml
Baseline: random background probes
Reading: higher = stronger binding
Constant ends, left off below: GCCTAGCAC … GTCTTGATTCGCTTGACGCTGCTG
Construct (chain): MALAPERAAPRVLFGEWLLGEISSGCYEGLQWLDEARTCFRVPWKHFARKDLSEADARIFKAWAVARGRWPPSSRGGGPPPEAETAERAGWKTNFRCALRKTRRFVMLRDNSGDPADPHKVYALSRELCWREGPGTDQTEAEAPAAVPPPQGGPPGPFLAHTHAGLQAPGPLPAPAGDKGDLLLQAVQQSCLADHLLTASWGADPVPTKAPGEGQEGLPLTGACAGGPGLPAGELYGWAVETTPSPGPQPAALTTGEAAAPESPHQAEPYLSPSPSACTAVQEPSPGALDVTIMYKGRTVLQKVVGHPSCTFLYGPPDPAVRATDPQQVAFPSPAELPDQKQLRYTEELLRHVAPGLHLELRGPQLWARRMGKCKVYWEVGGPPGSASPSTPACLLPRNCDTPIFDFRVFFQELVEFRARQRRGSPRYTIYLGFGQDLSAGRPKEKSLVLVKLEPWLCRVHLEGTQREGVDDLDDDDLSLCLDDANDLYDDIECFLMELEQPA
For `GACGATACCGGGTTTCGAGACGTGCTA`, the log fluorescence was 2.91 z-score.
With `GACGGACTGCTACTGCTGAAGTGCTAG` the log fluorescence was -0.677 z-score.
`TTATGTTTCGACTTTCGGTTAGTGCTA` has a log fluorescence of 6.8 z-score.
For `GACGGTATCGGACTAGGGACGTGCTAG`, the log fluorescence was 0.165 z-score.
For `TCATTTTTCTAAACCATACTGTGCTAG`, the log fluorescence was 1.41 z-score.
`TTAGGCATCCTTATCCTTTAGTGCTAG` has a log fluorescence of -0.392 z-score.
The log fluorescence of `TTAGGTTTCCTTCTCCTCTAGTGCTAG` is reported as 2.51 z-score.
For `GACGATCCCAGACTGGAGACGTGCTAG`, the log fluorescence was -0.259 z-score.
`TTAGATATCGGGTTTCTATTAGTGCTA` has a log fluorescence of 2.06 z-score.
`TCAGTTTTTATTTTCTGACTGTGCTAG` has a log fluorescence of 1.34 z-score.
For `TTAGATATCGAGTTTCGATTAGTGCTA`, the log fluorescence was 7.24 z-score.

Study 2
Target: Histone acetyltransferase KAT6A, winged helix 2, GST fusion (KAT6A, Homo sapiens, UniProt Q92794, residues 85-181)
Method: protein binding microarray
Form: double-stranded DNA, one strand shown
Medium: in vitro
Tested at: not given
Notes: 8-mer, flanks averaged, mean of 2 arrays, mostly near background
Baseline: not given
Reading: higher = stronger binding
Construct (chain): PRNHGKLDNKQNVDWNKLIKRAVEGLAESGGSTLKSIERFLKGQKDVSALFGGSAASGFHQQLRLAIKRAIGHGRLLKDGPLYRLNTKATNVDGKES
With `ATGAAAAG` the E-score was -0.181.
With `CAGAGCGC` the E-score was -0.0214.
With `ACTATCGC` the E-score was -0.00514.
The E-score of `AAACCCCC` is reported as -0.194.
`CGTCATAC` has an E-score of 0.0453.
The E-score of `ACGGCAGC` is reported as 0.0959.

Study 3
Target: CCNB3, cyclin fold, Cln2 fusion (human)
Method: yeast growth competition, sequencing
Medium: yeast
Notes: weak parent motif
Baseline: not given
Reading: higher = stronger binding
Starting sequence: SLBP docking peptide (human); ARYKRKLLINDFG; partner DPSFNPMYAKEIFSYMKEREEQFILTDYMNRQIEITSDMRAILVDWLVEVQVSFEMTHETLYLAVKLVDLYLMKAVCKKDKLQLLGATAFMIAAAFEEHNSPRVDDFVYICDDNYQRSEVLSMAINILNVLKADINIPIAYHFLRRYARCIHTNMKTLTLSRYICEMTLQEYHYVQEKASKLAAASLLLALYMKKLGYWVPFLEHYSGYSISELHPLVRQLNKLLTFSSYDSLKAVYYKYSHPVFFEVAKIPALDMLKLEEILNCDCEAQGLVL
`L7T` — result for “normalised enrichment score”: -0.138.
Under “normalised enrichment score”, `I9Y` is recorded as 0.152.
`D11T` — result for “normalised enrichment score”: 0.39.
For `Y3S`, “normalised enrichment score” read 0.662.
`D11W` — result for “normalised enrichment score”: 0.0621.
`L7Q` — result for “normalised enrichment score”: -0.0227.
`L8E`: “normalised enrichment score” 0.554.
`N10Q` — result for “normalised enrichment score”: 0.31.

Further values, each from its own experiment
With `PhoQ, residues 284 288 289 292 302 303 TYGVAM` the fold induction was 4.53 (PhoP, residues 12 14 15 18 19 TQAIL (Escherichia coli, UniProt P23836); Sort-seq, measured: YFP reporter; E. coli; PhoQ-PhoP variant library, together with: 10 µM Mg2+; baseline: high Mg2+ state, higher = stronger signaling).

A few entries again (further values, each from its own experiment):
With `PhoQ, residues 284 288 289 292 302 303 TYGVAM` the fold induction was 4.53 (PhoP, residues 12 14 15 18 19 TQAIL (Escherichia coli, UniProt P23836); Sort-seq, measured: YFP reporter; E. coli; PhoQ-PhoP variant library, together with: 10 µM Mg2+; baseline: high Mg2+ state, higher = stronger signaling).
